Measurements collected from several papers.
Compare with care: the assays were run in different laboratories. ± marks the error that the study gave.

Cn1cncc1-c1c(F)cncc1NC(=O)c1c(N)nn2cc(F)cnc12 gave an AUC(0-inf) of 1830 ng·h/mL (human patients, plasma; oral, 90 mg).
Nc1ccn([C@@H]2O[C@H](CO)[C@@H](O)[C@@H]2O)c(=O)n1 has an AUC(0-inf) of 70.5 ng·h/mL (human; subcutaneous, 20 mg, cycle 1 day 2, given alone).
FC(F)(F)c1ccc(CNc2ccc(Cc3c[nH]c4ncc(Cl)cc34)cn2)cn1 has an AUC(0-inf) of 135000 ng·h/mL (human, plasma; oral, dose not given, with: itraconazole).
COC(=O)N[C@@H](C)CNc1nccc(-c2cn(C(C)C)nc2-c2cc(Cl)cc(NS(C)(=O)=O)c2F)n1 has an AUC(0-inf) of 3510 ng·h/mL (human, plasma; oral, 50 mg, geometric mean, with: diltiazem 240 mg once daily).
The AUC(0-inf) of COc1ccc([C@@H](O)c2cc(-c3ncnc4cc(N5CCOCC5)ccc34)c(F)cc2Cl)nn1 is reported as 1100 ng·h/mL (healthy human volunteers, plasma; oral, 100 mg single dose, tablet, fasted, geometric mean).
CCNCCCNC/C=C\CNCCCNCC gave an AUC(0-inf) of 474 ng·h/mL (LC-MS/MS; human cancer patients, plasma; intravenous infusion 60 min, 150 mg, median, cycle 1).
Nc1ccn([C@@H]2O[C@H](CO)[C@@H](O)C2(F)F)c(=O)n1 gave an AUC(0-inf) of 17500 ng·h/mL (human, plasma; dose not given, mean, before paricalcitol).
For N[C@](CO)(CCc1ccc(Sc2cccc(OCc3ccccc3)c2)cc1Cl)COP(=O)(O)O, the AUC(0-inf) was 169 ng·h/mL (human, blood; 3 mg, mean, alone).
O=C(c1nc2n(n1)[C@H](c1ccccc1)C[C@@H]2F)C1CC1 gave an AUC(0-inf) of 13200 ng·h/mL (geometric LS mean; human, fasted, plasma; oral, 75 mg single dose).
For CCN1CCN(Cc2ccc(Nc3ncc(F)c(-c4cc(F)c5nc(C)n(C(C)C)c5c4)n3)nc2)CC1, the AUC(0-inf) was 3940 ng·h/mL (fasted healthy human subjects, plasma; oral, 200 mg, 2 × 100 mg capsules).
For CN1CCC(COc2cnc(-c3cccc(Cn4nc(-c5cccc(C#N)c5)ccc4=O)c3)nc2)CC1, the AUC(0-inf) was 23200 ng·h/mL (human, plasma; dose not given, day 12, single dose, geometric mean, with: itraconazole 200 mg once daily days 8-18).
Cc1cc(Nc2cc3ncccc3c(N[C@@H]3C[C@H]4CC[C@@H](C3)N4CCC#N)n2)n[nH]1 gave an AUC(0-inf) of 18 ng·h/mL (human, plasma; 100 mg single dose, mean).
For CN1C(=O)[C@@H](NC(=O)c2nnc(Cc3ccccc3)[nH]2)COc2cccnc21, the AUC(0-inf) was 57500 ng·h/mL (healthy human, fasted, plasma; oral, 400 mg single dose, geometric mean).
The AUC(0-inf) of CC1(C)CC[C@]2(NC(=O)C(C)(F)F)CC[C@]3(C)[C@H](C(=O)C=C4[C@@]5(C)C=C(C#N)C(=O)C(C)(C)[C@@H]5CC[C@]43C)[C@@H]2C1 is reported as 1730 ng·h/mL (human, plasma; oral, 150 mg, single dose alone, geometric mean).
C[C@H](Oc1ccc(Br)cc1-c1ccon1)C(=O)O has an AUC(0-inf) of 113000 ng·h/mL (healthy male humans, plasma; oral, 400 mg once daily, day 1).
CNC(=O)c1ccc(-c2cnc3ncc(Cc4ccc5ncccc5c4)n3n2)cc1F gave an AUC(0-inf) of 7990 ng·h/mL (human moderate hepatic impairment NCI; oral, 200 mg single dose, mean).
With CN(C)N=Nc1[nH]cnc1C(N)=O the AUC(0-inf) was 110000 ng·h/mL (human patients, plasma; intravenous, 1000 mg/m^2 over 1 h, cycle 1 day 1, given alone).
The AUC(0-inf) of CO[C@H]1C[C@@H]2CC[C@@H](C)[C@@](O)(O2)C(=O)C(=O)N2CCCC[C@H]2C(=O)O[C@H]([C@H](C)C[C@@H]2CC[C@@H](OCCO)[C@H](OC)C2)CC(=O)[C@H](C)/C=C(\C)[C@@H](O)[C@@H](OC)C(=O)[C@H](C)C[C@H](C)/C=C/C=C/C=C/1C is reported as 338 ± 148 ng·h/mL (human patients, plasma; oral, 5 mg single dose, with: vorolanib 150 mg).
For C=CC(=O)NC1CCN(c2ncc3ncnc(Nc4ccc(Oc5ccc6c(c5)ncn6C)c(C)c4)c3n2)CC1, the AUC(0-inf) was 5.92 µM·h (human, male, plasma; oral, 30 mg, fasted, adjusted geometric mean).
With CCCOc1ccc(NC(=O)CN2CCN(C)CC2)cc1-c1nc(CC)c(CC)c(=O)[nH]1 the AUC(0-inf) was 585 ± 83.6 ng·h/mL (human, fasting, plasma; oral, 10 mg, with: alcohol 0.5 g/kg).
The AUC(0-inf) of Cc1ccc(C(=O)N(CCCN)C(c2nc3snc(C)c3c(=O)n2Cc2ccccc2)C(C)C)cc1 (stereo not shown) is reported as 1290 ng·h/mL (human patients, plasma; intravenous, 16 mg/day, day 3 after induction, geometric mean).
For C#C[C@]1(CO)O[C@@H](n2cnc3c(N)nc(F)nc32)C[C@@H]1O, the AUC(0-inf) was 1.57 µM·h (human, plasma; oral, 15 mg, single dose, geometric mean).
For Cn1cncc1[C@@](N)(c1ccc(Cl)cc1)c1ccc2c(c1)c(-c1cccc(Cl)c1)cc(=O)n2C, the AUC(0-inf) was 2800 to 36100 ng·h/mL (human, without dose-limiting toxicity, plasma; oral, dose not given, range).
With CNC(=O)c1c(C)oc2cc(Oc3ncnc4cc(OC)c(OC)cc34)ccc12 the AUC(0-inf) was 5710 ng·h/mL (human, normal hepatic function (Child-Pugh), plasma; oral, 5 mg, single dose).
With Cn1cncc1[C@@](N)(c1ccc(Cl)cc1)c1ccc2c(c1)c(-c1cccc(Cl)c1)cc(=O)n2C the AUC(0-inf) was 372 ng·h/mL (human, plasma; oral, dose not given, with: omeprazole).
N[C@@H]1c2cccnc2[C@H](OC(=O)N2CCC(n3c(=O)[nH]c4ncccc43)CC2)CC[C@H]1c1cccc(F)c1F gave an AUC(0-inf) of 5150 ng·h/mL (human, plasma; oral, 75 mg single dose, alone, geometric mean, fluconazole DDI study).
CN(C)C(=O)c1cc2cnc(Nc3ccc(N4CCNCC4)cn3)nc2n1C1CCCC1 gave an AUC(0-inf) of 7960 ng·h/mL (human, moderate renal impairment, plasma; oral, 400 mg, geometric mean).
Cc1cc(C)c(CNC(=O)c2cc(Cl)c3c(c2C)O[C@@](C)([C@H]2CC[C@H](N(C)C)CC2)O3)c(=O)[nH]1 gave an AUC(0-inf) of 3340 ng·h/mL (mean; healthy male humans, plasma; oral, 25 mg, day 11, with: itraconazole).
The AUC(0-inf) of NC(CO)(CO)CCc1ccc(Sc2cccc(OCc3ccccc3)c2)cc1Cl is reported as 110 ng·h/mL (human male, whole blood; oral, 3 mg, given alone).
For CC(C)[C@@H]1CC[C@@H](C)C[C@H]1OC(=O)O[C@@H](C)OC(=O)[C@H]1[C@@H]2C[C@H](F)[C@@](N)(C(=O)O)[C@@H]21, the AUC(0-inf) was 83.7 ng·h/mL (human, plasma; oral, 20 mg single dose, fed).
CC1=C(c2cccc(O)c2)[C@H](c2ccc(OCCN3CC(CF)C3)cc2)Oc2ccc(O)cc21 gave an AUC(0-inf) of 3400 ng·h/mL (human, plasma; oral, 1400 mg single dose, geometric mean).
NC[C@@]1(CC(=O)O)[C@@H]2CC[C@H]3C[C@@H]2[C@@H]1C3 gave an AUC(0-inf) of 6660 ng·h/mL (human, severe renal impairment, plasma; oral, 20 mg single dose, geometric mean).
The AUC(0-inf) of C[C@]12C=CC(=O)C=C1CC[C@@H]1[C@@H]2[C@@H](O)C[C@@]2(C)[C@H]1CC[C@]2(O)C(=O)CO is reported as 2440 ng·h/mL (human; oral, dose not given).
For CC(=O)c1cc(C(=O)N[C@@H](C)Cn2ccc(-c3ccc(C#N)c(Cl)c3)n2)[nH]n1, the AUC(0-inf) was 21600 ng·h/mL (human, fasted, plasma; oral tablet, 300 mg, geometric mean).
The AUC(0-inf) of COc1ccc(F)cc1C(=O)NCc1ccc(-c2nn([C@@H](C)C(F)(F)F)c(N)c2C(N)=O)cc1 is reported as 80600 ng·h/mL (human, plasma; oral, 200 mg single dose, given alone).
COC(=O)N[C@H](C(=O)N1CCC[C@H]1c1nc2cc([C@H]3CC[C@H](c4cc5nc([C@@H]6CCCN6C(=O)[C@@H](NC(=O)OC)[C@@H](C)OC)[nH]c5cc4F)N3c3cc(F)c(N4CCC(c5ccc(F)cc5)CC4)c(F)c3)c(F)cc2[nH]1)[C@@H](C)OC gave an AUC(0-inf) of 2200 ng·h/mL (healthy human subjects, plasma; oral, dose not given, single dose alone).
CC(C)n1c(Nc2cccnc2)nc2cnc(Nc3ccc(N4CCN(C)CC4)cc3)nc21 has an AUC(0-inf) of 880 ng·h/mL (human, male; oral, 100 mg, alone, geometric mean).
For CN(CC#N)C(=O)C[C@H](Nc1nc2ccccc2[nH]1)c1cccc(C(F)(F)F)c1, the AUC(0-inf) was 23900 ± 5250 ng·h/mL (human; intravenous infusion, 3 mg/kg, 1 mg/mL formulation).
For Cn1nnc2c(C(N)=O)ncn2c1=O, the AUC(0-inf) was 12300 ng·h/mL (human patients, plasma; oral, 55 mg/m2, day 5, dose level DL6, median, with: talazoparib 600 µg/m2).
The AUC(0-inf) of C[C@@H](Oc1ccc(S(C)(=O)=O)cc1C(=O)N1C[C@@H]2C[C@]2(c2cc(C(F)(F)F)on2)C1)C(F)(F)F is reported as 12.7 µM·h (healthy young humans, plasma; oral, 25 mg single dose).
For C[C@H]1CN(C(=O)CC#N)[C@]12CCN(c1ncnc3[nH]ccc13)C2, the AUC(0-inf) was 39.6 ng·h/mL (healthy adult humans, plasma; oral, 1.5 mg single, geometric mean).
The AUC(0-inf) of N#CCNC(=O)c1ccc(-c2ccnc(Nc3ccc(N4CCOCC4)cc3)n2)cc1 is reported as 3420 ng·h/mL (healthy human volunteers, plasma; oral, 200 mg single dose, day 1, fasted, given alone).
For N#C[C@H](C[C@@H]1CCCNC1=O)NC(=O)[C@H](CC1CC1)NC(=O)c1cc2cccc(Cl)c2[nH]1, the AUC(0-inf) was 17000 ng·h/mL (human; 700 mg twice daily, day 1).
For O=C(O)CCC(=O)O.[2H]C([2H])([2H])Oc1cc(C)c2[nH]ccc2c1CN1CC[C@@H](C2CC2)C[C@H]1c1ccc(C(=O)O)cc1, the AUC(0-inf) was 130000 ng·h/mL (healthy humans, fasted, plasma; oral, 200 mg, single dose).
C=CC(=O)N(C)CCOc1c(N)ncnc1-c1cc(F)cc(NC(=O)c2ccc(C3CC3)cc2F)c1C has an AUC(0-inf) of 333 ± 143 ng·h/mL (human, whole blood; oral, 100 mg, single ascending dose).
The AUC(0-inf) of N[C@]1(C(=O)O)[C@H]2[C@@H](C[C@@H]1F)[C@@H]2C(=O)O is reported as 676 ng·h/mL (human, both sexes, plasma; oral, 20 mg, fed, single dose).
For C[C@@H](Oc1ccc(S(C)(=O)=O)cc1C(=O)N1C[C@@H]2C[C@]2(c2cc(C(F)(F)F)on2)C1)C(F)(F)F, the AUC(0-inf) was 4.47 µM·h (healthy human volunteers, fed, plasma; oral, 10 mg single, adjusted geometric mean).
With Cn1c(=O)oc2ccc(-c3ccc(C[C@@H](C#N)NC(=O)[C@@H]4CNCCCO4)cc3)cc21 the AUC(0-inf) was 3510 ng·h/mL (human, normal renal function, plasma; oral, 25 mg single dose, mean).
CCCn1cc(C)c2c(=O)[nH]c(-c3cc(S(=O)(=O)N4CCN(CC)CC4)ccc3OCC)nc21 has an AUC(0-inf) of 303 ± 190 ng·h/mL (human, plasma; oral, 100 mg, with: alcoholic beverage 0.5 g/kg).
With C[C@@H](Cn1ccc(-c2ccc(C#N)c(Cl)c2)n1)NC(=O)c1cc([C@@H](C)O)[nH]n1 the AUC(0-inf) was 2420 ng·h/mL (human, fasted, plasma; oral tablet, 300 mg, geometric mean).
Cc1ccc(C)c(OCCCC(C)(C)C(=O)O)c1 gave an AUC(0-inf) of 62000 ng·h/mL (human, plasma; oral, 600 mg single, after lopinavir/ritonavir, geometric mean, with: lopinavir/ritonavir 400/100 mg twice daily).
With NC(=O)c1[nH]cnc1N the AUC(0-inf) was 8450 ng·h/mL (human patients, plasma; IV infusion over 1 h, 1000 mg/m^2 DTIC, cycle 2 day 1, co-administered with co-drug).
